Published values gathered from unrelated publications.
Protocols differ between the studies behind these lines. Several values in a cell are separate wells, animals, samples, runs or records. ± marks the error that the study gave.

SMILES | test | system | conditions | solubility
CC(C)(C)NC(=O)c1ccccc1 | – | PBS | pH 7.4, 25 °C, 2% DMSO | 312 µM
O=C(Nc1ccc2ccccc2c1)C1CC2(CC2)C1 | kinetic solubility | PBS with 2% DMSO | 2 h, pH 7.4, 25 °C, single incubation | 3 µM and 2 µM
CC(C)(C)C(=O)Nc1ccccc1 | – | PBS | 2 h, pH 7.4, 25 °C | ≥ 400 µM
O=C(Nc1ccc2ccccc2c1)C1CC2(CC2)CO1 (stereo not shown) | kinetic solubility | PBS with 2% DMSO | 2 h, pH 7.4, 25 °C, single incubation | 361 µM and 358 µM
O=c1c2ccccc2[se]n1CCCCCCn1[se]c2ccccc2c1=O | shake-flask, RP-HPLC | PEG400 | 24 h, 25 °C | 2380 ± 80 µg/mL
O=C(Nc1cccc(C(=O)N2CCC(c3nc(-c4ccccc4)n[nH]3)CC2)c1)c1ccccc1 | UV | DPBS | 18 h, room temperature | 31.1 ± 0.9 µM
O=C(Nc1ccc2ccccc2c1)C1CC2(C1)CC(F)(F)C2 | kinetic solubility | PBS with 2% DMSO | 2 h, pH 7.4, 25 °C, single incubation | 9 µM
OC[C@H]1O[C@@H](n2cnc3c(SCc4ccccc4)nc(Cl)nc32)C[C@@H]1O | UV absorbance | culture medium | stock diluted to 0.025 mM | 14.4 µM
C#CCN(C(=O)OCc1ccc(F)cc1)[c-]1cccc1.[Fe+2].c1cc[cH-]c1 | absorbance | PBS | pH 7.4, 1% DMSO | 34 ± 5 µM
Cc1cc(C(=O)N[C@@H](CC(=O)NC(C)(C)C)C(=O)NCCNC(=O)c2cccc(-c3cc[nH]n3)c2)no1 | – | simulated gastric fluid | pH 1.2 | > 94 µg/mL
CC(=O)O[C@H]1C(=O)[C@@]2(C)[C@H]([C@H](OC(=O)c3ccccc3)[C@]3(O)C[C@H](OC(=O)[C@H](OCOP(=O)(O)O)[C@@H](NC(=O)c4ccccc4)c4ccccc4)C(C)=C1C3(C)C)[C@]1(OC(C)=O)CO[C@@H]1C[C@@H]2O | HPLC, saturated solution | simulated gastric fluid | 30 s, pH 1.2 | 24 µg/mL
CC1CCC2C(C)C(OC(=O)CCC(=O)OCCOC(=O)N3CCC(Nc4ccc(S(=O)(=O)NC(=O)c5ccc(N6CCN(CC7=C(c8ccc(Cl)cc8)CC(C)(C)CC7)CC6)cc5Oc5cnc6[nH]ccc6c5)cc4[N+](=O)[O-])CC3)OC3OC4(C)CCC1C32OO4 (stereo not shown) | – | – | – | 2.32 µg/mL
O=C1Nc2ccc(I)cc2C1=Cc1ccc[nH]1 | AlphaScreen buffer | aqueous buffer, 7.5% DMSO | pH 7.3 | 2.9 ± 0.8 µM
O=C(N[c-]1cccc1)OCc1ccc(C(=O)O)cc1.[Fe+2].c1cc[cH-]c1 | absorbance | PBS | pH 7.4, 1% DMSO | > 200 µM
O=C1Nc2ccccc2C1=Cc1cc(Br)c(O)c(Br)c1 | AlphaScreen buffer | aqueous buffer, 7.5% DMSO | pH 7.3 | 395 ± 16 µM
FC(F)(F)C1(c2ccc(CN3CCN(C(c4ccccc4)c4ccc(Cl)cc4)CC3)cc2)CCC1 (stereo not shown) | – | PBS | 2 h, pH 7.4, 25 °C | 7 µM
Cn1cnnc1C1CCN(c2ncccc2-c2cccnc2)CC1 | – | ammonium acetate buffer, DMSO | 24 h, pH 7.4, 50 mM buffer, 2.5% DMSO | 234 µM
CC1(C)OCCc2cc(C(=O)N3CCC(c4nc(-c5ccccc5)n[nH]4)CC3)ccc21 | UV | DPBS | 18 h, room temperature | 76.5 ± 2.1 µM
O=C(NNCc1ccccc1)C1(C(F)(F)F)CC1 | – | PBS | 2 h, pH 7.4, 25 °C, 2% DMSO | 454 µM
COc1ccc(C=C2C(=O)Nc3ccc(I)cc32)cc1 | AlphaScreen buffer | aqueous buffer, 7.5% DMSO | pH 7.3 | 19.3 ± 4.2 µM
CC1(C)C(=O)N(c2cnc(C#N)c(C(F)(F)F)c2)C(=S)N1Cc1ccc(-c2c[nH]nn2)cc1 | – | water | 10% DMSO | 3000 µg/mL
CNC(=O)C[C@H](Cc1ccc(C#N)cc1)NC(=O)c1cc(-c2ccc(CN[C@H](C)c3ccc(C)cc3)o2)ccc1Cl | – | – | pH 6.5 | 6 µg/mL

SMILES | test | system | conditions | solubility
Cc1ncc2[nH]c(=O)n(-c3cnc(Oc4cccc5c4C(C)(C)CO5)c(Cl)c3C)c2n1 | – | simulated gastric fluid | pH 2 | 167 µM
O=C(Nc1ccc2ccccc2c1)C1CC2(CCC2)CO1 (stereo not shown) | kinetic solubility | PBS with 2% DMSO | 2 h, pH 7.4, 25 °C, mean of incubations | 118 µM
CC(C)N(Cc1ccccc1)C(=O)C1(C(F)(F)F)CC1 | – | PBS | 2 h, pH 7.4, 25 °C, 2% DMSO | 291 µM
CC1(C)C(=CC=C2CCCC(C=CC3=[N+](CCC[N+](C)(C)C)c4ccc(S(=O)(=O)O)cc4C3(C)C)=C2SCCOCCOCCC(=O)O)N(CCC[N+](C)(C)C)c2ccc(S(=O)(=O)O)cc21 | – | PBS with 30% FBS | pH 7.4, 50 mM HEPES | 53000 µg/mL
COc1cc(OC)c(/N=N/c2ccc(C(=O)NO)cc2)c(OC)c1 | – | water with 2% DMSO | – | > 200 µM
O=C(OCc1ccc(F)cc1)N(Cc1cccc(CN2CCCCC2)c1)[c-]1cccc1.[Fe+2].c1cc[cH-]c1 | absorbance | PBS | pH 7.4, 1% DMSO | 26 ± 2 µM
Cc1[nH]nc2c1N=C(c1ccccc1Cl)c1cnc(N3CCOCC3)cc1N2 | – | aqueous buffer | pH 6.8 | 0.44 µg/mL
CN(C)C(=O)c1ccc(COC(=O)N[c-]2cccc2)cc1.[Fe+2].c1cc[cH-]c1 | absorbance | RPMI medium with 5% FBS | 1% DMSO | > 200 µM
Cc1cccc(Oc2ccc(-n3c(=O)[nH]c4cccnc43)cn2)c1C | – | simulated gastric fluid | pH 2 | 7 µM
COC(=O)c1ccc2c(c1)NC(=O)C2=Cc1cc(Br)c(O)c(Br)c1 | AlphaScreen buffer | aqueous buffer, 7.5% DMSO | pH 7.3 | 135 ± 28 µM
O=C(N[c-]1cccc1)OCc1ccc(F)cc1.[Fe+2].c1cc[cH-]c1 | absorbance | PBS | pH 7.4, 1% DMSO | 49 ± 4 µM
C/C(N)=N/C(=N\S(=O)(=O)c1ccc(C(F)(F)F)cc1)N1C[C@H](c2ccccc2)C(c2ccc(Cl)cc2)=N1 | – | simulated gastric fluid | pH 6.8 | 0.8 µg/mL
Cc1nc(C)c(-c2ccnc(Nc3cccc(C#N)c3)n2)s1 | – | aqueous buffer | pH 7.4 | < 1.32 µg/mL
O=S1(=O)CC2CCCCC2CS1 (stereo not shown) | phase solubility, NMR | water | 25 °C, added: hydroxypropyl-β-cyclodextrin 64.7 mM | 9400 µM
O=C1Nc2ccc(I)cc2C1=Cc1ccc(-c2ccc(C(F)(F)F)cc2)cc1 | AlphaScreen buffer | aqueous buffer, 7.5% DMSO | pH 7.3 | 1.7 ± 0.1 µM
CC(C)N(Cc1ccccc1)C(=O)C1(C(F)(F)F)CCC1 | – | PBS | 2 h, pH 7.4, 25 °C, 2% DMSO | 230 µM
O=C(NCc1ccc2c(c1)CN(C(=O)c1cc(-c3ccccc3)no1)C2)C1C=CC=CC=C1 | UV | DPBS | 18 h, room temperature | 1.02 ± 0.3 µM
O=C(NC1(C(F)(F)F)CCC1)c1ccccc1 | – | PBS | pH 7.4, 25 °C, 2% DMSO | 342 µM
COc1ccc(N2CCOCC2)c2sc(NC(=O)c3ccnc(CN4CCCC4)c3)nc12 | in situ salt screening | 0.1 M hydrochloric acid | 7 days, pH 1.33 | 137 µg/mL
FC(F)(F)C1(c2ccc(CN3CCN(C(c4ccccc4)c4ccc(Cl)cc4)CC3)cc2)CC1 (stereo not shown) | – | PBS | 2 h, pH 7.4, 25 °C | 3 µM
CN(C)S(=O)(=O)c1ccc(S(=O)(=O)N2CCC(n3c(=O)[nH]c4ccccc43)CC2)cc1 | HPLC | Tween 80 | 24 h, 20 °C | 90 µg/mL

For quick reference, copied from above:
SMILES | test | system | conditions | solubility
O=C(NC1(C(F)(F)F)CCC1)c1ccccc1 | – | PBS | pH 7.4, 25 °C, 2% DMSO | 342 µM
C/C(N)=N/C(=N\S(=O)(=O)c1ccc(C(F)(F)F)cc1)N1C[C@H](c2ccccc2)C(c2ccc(Cl)cc2)=N1 | – | simulated gastric fluid | pH 6.8 | 0.8 µg/mL
